Assay results of several laboratories.
Protocols differ between the studies behind these lines. Values joined by “and” are separate records of one study, mostly repeats; a detail may differ. ± gives the spread as reported. No end group written: not given here.

CC(C)C[C@H](NC(=O)[C@H](CO)NC(=O)[C@H](CCCNC(=N)N)NC(=O)[C@H](CC(=O)O)NC(=O)[C@H](CCC(=O)O)NC(=O)[C@H](C)NC(=O)[C@@H]1CCCN1C(=O)[C@H](C)NC(=O)[C@H](CCC(=O)O)NC(=O)[C@@H]1CCCN1C(=O)[C@@H]1CCCN1)C(N)=O  TH+ neuron number (refers to: tyrosine hydroxylase; rat F344, unilateral 6-OHDA lesion, lesioned SNpc middle, -5.60 mm from bregma; intranasal, 300 µg daily): 29 ± 5
Cc1c(-c2nnc(SC/C(=N/O)c3ccc(Cl)cc3)n2-c2ccccc2)nnn1-c1ccc(S(N)(=O)=O)cc1  NO released (Griess; phosphate buffer-methanol; 100 µM, 1 h, pH 7.4, 37 °C, with: N-acetylcysteine 0.5 mM; baseline: theoretical maximum release): 0.73%
COc1cnc(C(=O)Nc2ccc(F)c([C@]34CN(c5ncc(F)cn5)C[C@H]3CSC(N)=N4)c2)cn1  time to nadir (refers to: CSF Aβ1–40 and Aβ1–42; healthy humans; 26 mg single dose): ~28 h
Cc1c(OCC(F)(F)F)ccnc1C[S@@+]([O-])c1nc2ccccc2[nH]1  time with intragastric pH above 4 (healthy human; oral, single dose, 60 mg, modified release, 12 to 24 h, crossover vs esomeprazole): 60%
CCOC(=O)CSc1nnc(C23CC4CC(CC(C4)C2)C3)n1-c1ccccc1  paw oedema inhibition (rat carrageenan paw oedema; intraperitoneal, 40 mg/kg, 4 h after carrageenan; baseline: vehicle control): > 50%
Cy5-CVWSLQNTLFM (Cy5-labelled; sequence looked up)  ILVs per GUV (GUV inward budding; peptide, POPC/cholesterol GUVs; 30 µM, 30 min): 0.5
COc1ccc2c(c1)c(CC(=O)O)c(C)n2C(=O)c1ccc(Cl)cc1  cytokine level (multiplex bead immunoassay, refers to: IL-12p70; CD-1 mice, serum; ip, 20 mg/kg, three-injection regimen, with: LPS 3 mg/kg): 107 ± 30.8 pg/mL
COC(=O)[C@@H](N)CCCNC(N)=N[N+](=O)[O-]  CD8+ T cell response (IFN-γ ELISPOT; EL4 tumour-bearing mice, spleen; drinking water, 2 g/L, 13 days, with: PNT-S peptide pool; baseline: untreated): ~5 fold
COc1nc(-c2cc(C)c(N[C@@H](C)c3cc(F)cc(F)c3)nn2)ccc1-n1cnc(C)c1  maximal Aβ42 and Aβ40 reduction (Macaca fascicularis, plasma; 10 to 200 mg/kg single dose, 4 h): 60 to 70%
CC[C@H](C)[C@H](NC(=O)[C@H](CCC(N)=O)NC(=O)[C@H](Cc1c[nH]cn1)NC(=O)[C@H](C)NC(=O)[C@H](CC(C)C)NC(=O)[C@H](CCCCN)NC(=O)[C@H](CCC(N)=O)NC(=O)[C@@H](NC(=O)[C@@H](NC(=O)[C@@H]1CSSC[C@H](NC(=O)CNC(=O)[C@H](Cc2ccccc2)NC(=O)[C@H](CO)NC(=O)[C@H](CCCNC(=N)N)NC(=O)[C@H](CC(C)C)NC(=O)CNC(=O)[C@H](CCC(N)=O)NC(=O)[C@H](Cc2ccccc2)NC(=O)[C@H](CC(N)=O)NC(=O)[C@H](CC(N)=O)NC(=O)[C@H](CCSC)NC(=O)[C@H](CO)NC(=O)[C@H](CCC(N)=O)NC(=O)[C@H](CCCNC(=N)N)NC(=O)[C@@H](N)Cc2ccc(O)cc2)C(=O)N[C@@H](CCCNC(=N)N)C(=O)N[C@@H](Cc2ccccc2)C(=O)NCC(=O)N[C@@H]([C@@H](C)O)C(=O)N1)[C@@H](C)O)C(C)C)C(=O)N[C@@H](Cc1ccc(O)cc1)C(=O)N[C@@H](CCC(N)=O)C(=O)N[C@@H](Cc1ccccc1)C(=O)N[C@H](C(=O)N[C@@H](CC(=O)O)C(=O)N[C@@H](CCCCN)C(=O)N[C@@H](CC(=O)O)C(=O)N[C@@H](CCCCN)C(=O)N[C@@H](CC(=O)O)C(=O)N[C@@H](CC(N)=O)C(=O)N[C@H](C(=O)N[C@@H](C)C(=O)N1CCC[C@H]1C(=O)N[C@@H](CCCNC(=N)N)C(=O)N[C@@H](CO)C(=O)N[C@@H](CCCCN)C(=O)N[C@H](C(=O)N[C@@H](CO)C(=O)N1CCC[C@H]1C(=O)N[C@@H](CCC(N)=O)C(=O)NCC(=O)N[C@@H](Cc1ccc(O)cc1)C(N)=O)[C@@H](C)CC)C(C)C)[C@@H](C)O  change in CDAI (patients, biologic-resistant Crohn's disease; intravenous infusion, 15 ng/kg/min, 4 weeks, unit not given, with: biologic; baseline: baseline): -64 ± 81
CS/C(S)=N/CCCC[S+](C)[O-] (racemic)  mRNA fold change (RT-PCR, refers to: Gckr; rat, colon; oral gavage, 200 mg/kg, 96 h, dosed for four days; baseline: vehicle): 6.82
CC(=O)O[C@H]1C(=O)[C@@]2(C)[C@H]([C@H](OC(=O)c3ccccc3)[C@]3(O)C[C@H](OC(=O)[C@H](O)[C@@H](NC(=O)c4ccccc4)c4ccccc4)C(C)=C1C3(C)C)[C@]1(OC(C)=O)CO[C@@H]1C[C@@H]2O  tumour size decrease (rat, DMBA-induced mammary tumour, mammary tumour; 2 mg/kg per week, day 42; baseline: before treatment): 81%
Cc1ccc(NC(=O)c2ccc(CN3CCN(C)CC3)cc2)cc1Nc1nccc(-c2cncc(-c3oncc3C)c2)n1  PGI-S score (mild-to-moderate Parkinson's disease patients; oral, 100 mg once daily, day 7, on anti-Parkinson medication; direction not given): 2.4 ± 0.5
SIYNFEKL  TNF-α only cells (flow cytometry, refers to: CD44hi CD8+ T cells; peptide, OT-I CD8+ T cells, mouse; dose not given, primed 5 days, TGF-β1 from day 2 onward, with: 20 ng/mL TGF-β1): 0.06%
C[C@H]1C[C@H]2CSC(N)=N[C@@]2(c2nc(NC(=O)c3ccc(OC(F)F)cn3)cs2)CO1  change from baseline (refers to: CSF Aβ1–38; healthy adults; 125 mg once daily, 14 days, day 15; baseline: placebo-adjusted baseline): -79.5%
Cc1cc(C(C)(C)C)c(O)c(C(C)(C)C)c1  DPPH radical scavenging (100 µg/mL): 76.7%
CN(C)C(=O)N[C@H]1CC[C@H](CCN2CCN(c3cccc(Cl)c3Cl)CC2)CC1  locomotor activity (open field; Sprague-Dawley rat, ouabain mania model; intraperitoneal, 0.50 mg/kg, 1 h pretreatment, 30 min observation, with: ouabain i.c.v.): 40.6 ± 5.32 squares crossed
CC(=O)Oc1ccccc1C(=O)O  thrombus protein content (Sprague-Dawley rat, common carotid artery; dose not given, 5 days twice daily, shear-induced thrombosis): 77 ± 54 µg
C[C@@H]1COCCN1c1cc([C@]2(O)C[C@H]3CC[C@@H](C2)O3)c2cnn(-c3cc[nH]n3)c2n1  IC80 (CHK1 phosphorylation, inhibitor, refers to: pCHK1 Ser345; mouse, LoVo xenograft, free plasma; 1 and 3 h): 18.6 nM
CCC1=C(C)CN(C(=O)NCCc2ccc(S(=O)(=O)NC(=O)N[C@H]3CC[C@H](C)CC3)cc2)C1=O  maximum serum glucose (oral glucose tolerance test; healthy male humans, serum; oral, steady state, with: 75 g glucose): 134 ± 26.9 mg/dL
Polymyxin B  IL-8 release (human whole blood; 125 ng/mL, 4 h, 37 °C, with: E. coli LPS 0.5 ng/mL; baseline: LPS without compound): 53.6 ± 14.5%
Cn1cnc(C[C@H](NC(=O)[C@@H]2CCC(=O)C2)C(=O)N2CCC[C@H]2C(N)=O)c1  decrease in sleeping time (Swiss albino mice; intravenous, 10 µmol/kg, with: pentobarbital; baseline: control): 68.3% and 68.6%
insulin aspart  time to 10% of maximum GIR (euglycemic clamp; human, type 1 diabetes; sc, 9 × 2 IU dispersed boluses): 23 ± 6 min
CCCOc1ccc(S(=O)(=O)NCCC2CCCN2C)cc1-c1nc2c(CCC)nn(C)c2c(=O)[nH]1 (stereo not drawn)  change in ln reactive hyperemia index (peripheral arterial tonometry; human adolescents after Fontan palliation; oral, 87.5 mg twice daily, day 5; baseline: baseline, positive is improvement): -0.03 ± 0.2
SIIVFEKL  triple cytokine producers (flow cytometry, refers to: CD44hi CD8+ T cells; peptide, OT-I CD8+ T cells, mouse; 1 µg/mL loading, primed 5 days, TGF-β1 from day 2 onward, with: 20 ng/mL TGF-β1): 24.7%
Cc1nc(NC(=O)N2CCC[C@H]2C(N)=O)sc1-c1ccnc(C(C)(C)C(F)(F)F)c1  time to progression (human, HER2-negative metastatic breast cancer; concentration not given, median, monotherapy after nab-paclitaxel stop): 15 weeks
insulin lispro  maximum glucose infusion rate (euglycemic clamp; healthy humans; subcutaneous, 10 units, 8 h): 9 mg/kg/min
O=C(NC[C@H]1CN(c2ccc(N3CCOCC3=O)cc2)C(=O)O1)c1ccc(Cl)s1  prothrombin time Emax increase (human, moderate renal impairment; 10 mg, with: steady-state erythromycin; baseline: same subjects, compound alone): ~20%
Cc1cc(C)c(/C=C2\C(=O)Nc3ccccc32)[nH]1  tumour area (MRI; human; concentration not given, 14.3 months): 1.33 cm²
cilengitide  total TGF-β1 level (Sprague-Dawley rats, ethanol control, colonic smooth muscle cells; ip, 18 mg/kg/day, 42 d): 9.77 ± 0.23 ng/mg protein
cotadutide  change in average glucose (refers to: CGM blood glucose; human, type 2 diabetes, CKD; subcutaneous, 50 to 300 µg once daily, day 32; baseline: baseline): -41.4 mg/dL
Cc1cn(-c2cc(NC(=O)c3ccc(C)c(Nc4nccc(-c5cccnc5)n4)c3)cc(C(F)(F)F)c2)cn1  UPDRS III score (human; 150 mg, week 36 follow-up; direction not given): 27 and 64 and 38 and 54
Clc1cccc(-c2c[nH]c(-c3ccccc3)n2)c1  ED50 (tonic-clonic seizure protection, maximal electroshock seizure test; mice; intraperitoneal, 0.25 h): ~130 mg/kg
PACAP  mRNA level (qRT-PCR, GAPDH-normalised, refers to: Somatostatin; APP V717I transgenic mouse, 6 months old, brain; intranasal, dose not given, 3 months; baseline: vehicle-treated mice): 138 ± 9.7%
Nc1nc2c(ccc3ccccc32)s1  EC50 (EDHF-type dilation potentiation, pressure myography; mouse, wild type, carotid artery; with: 100 nM acetylcholine): 93 nM
Cc1ccc(/C(CSc2nnc(-c3nnn(-c4ccc(S(N)(=O)=O)cc4)c3C)n2-c2ccccc2)=N\O)cc1  NO released (Griess; phosphate buffer-methanol; 100 µM, 1 h, pH 7.4, 37 °C, with: N-acetylcysteine 0.5 mM; baseline: theoretical maximum release): 1.66%

A few entries again:
C[C@H]1C[C@H]2CSC(N)=N[C@@]2(c2nc(NC(=O)c3ccc(OC(F)F)cn3)cs2)CO1  change from baseline (refers to: CSF Aβ1–38; healthy adults; 125 mg once daily, 14 days, day 15; baseline: placebo-adjusted baseline): -79.5%
Clc1cccc(-c2c[nH]c(-c3ccccc3)n2)c1  ED50 (tonic-clonic seizure protection, maximal electroshock seizure test; mice; intraperitoneal, 0.25 h): ~130 mg/kg
COc1ccc2c(c1)c(CC(=O)O)c(C)n2C(=O)c1ccc(Cl)cc1  cytokine level (multiplex bead immunoassay, refers to: IL-12p70; CD-1 mice, serum; ip, 20 mg/kg, three-injection regimen, with: LPS 3 mg/kg): 107 ± 30.8 pg/mL
CCOC(=O)CSc1nnc(C23CC4CC(CC(C4)C2)C3)n1-c1ccccc1  paw oedema inhibition (rat carrageenan paw oedema; intraperitoneal, 40 mg/kg, 4 h after carrageenan; baseline: vehicle control): > 50%
cotadutide  change in average glucose (refers to: CGM blood glucose; human, type 2 diabetes, CKD; subcutaneous, 50 to 300 µg once daily, day 32; baseline: baseline): -41.4 mg/dL
